# Measurements collected from several papers.
# Parts stem from different laboratories: compare values within a part only. Positions count from the first letter of the parent shown.

# Study 1
# Target: Interferon regulatory factor 7, full length, phosphomimetic (IRF7, Homo sapiens, UniProt Q92985, residues 1-503, S471D/S472D/S475D/S476D/S477D/S483D/S484D/S487D)
# Technique: protein-binding microarray
# Molecule type: double-stranded DNA, one strand shown
# Sample: in vitro
# Tested at: 2200 nM top
# Notes: 60-bp whole probe
# With: salmon DNA 0.4 mg/ml
# Baseline: random background probes
# Reading: higher = stronger binding
# Shared flanks, not repeated: GCCTAGCAC … GTCTTGATTCGCTTGACGCTGCTG
# Construct (chain): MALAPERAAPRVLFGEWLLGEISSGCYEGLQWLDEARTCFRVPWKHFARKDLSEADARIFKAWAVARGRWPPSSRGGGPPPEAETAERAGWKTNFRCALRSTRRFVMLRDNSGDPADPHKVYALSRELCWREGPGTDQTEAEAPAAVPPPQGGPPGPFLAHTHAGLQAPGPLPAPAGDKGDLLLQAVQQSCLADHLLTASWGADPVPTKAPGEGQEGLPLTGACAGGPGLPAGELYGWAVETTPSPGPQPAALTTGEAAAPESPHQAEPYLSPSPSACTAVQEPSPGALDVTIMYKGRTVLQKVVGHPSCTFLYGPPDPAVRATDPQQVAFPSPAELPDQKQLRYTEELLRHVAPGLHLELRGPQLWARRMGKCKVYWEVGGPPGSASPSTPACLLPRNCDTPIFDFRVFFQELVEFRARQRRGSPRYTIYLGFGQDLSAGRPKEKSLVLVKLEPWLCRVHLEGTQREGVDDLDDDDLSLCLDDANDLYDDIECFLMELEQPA
Oligonucleotide,fitted relative affinity [z-score]
CCAAATCTGTGTTATTAAAATGTGCTA,0.367
TTAGAACTGAGTATCCATTAGTGCTAG,-0.362
GACGGACTGAGTCTCGGGACGTGCTAG,-0.355
GACGGACTGGACGCTGGGGACGTGCTA,-1.04
TTAGGACTGGGGGATCGGTTAGTGCTA,0.234
GACGGTTCCGGTTTCCGGACGTGCTAG,4.43
TCACATCTCCAGTAGCCTACTGTGCTA,1.55
TCAGGTATCGACTATCGGTTAGTGCTA,1.03
TTATGTATCGGACTGGGTTAGTGCTAG,0.588
CATTTTCTCTTATTCTAACAGTGCTAG,3.42
GACGGTCTCCTACTACTGACGTGCTAG,0.867
TTAGGTATCTGGTTTCGGTTAGTGCTA,5.94
GACGGTATCGACTTTTGGGACGTGCTA,0.417
TTAGATATCGGGGCTGGATTAGTGCTA,-0.164
TCAACTTCGGCCTCTAGGACTGTGCTA,-0.0844
GACGGACTGGGACTGGGGAAGTGCTAG,-0.978
GACGATTTCGGGTTACGAGACGTGCTA,5.78
TTAGGTTTCGGTCTCCGTTAGTGCTAG,7.64
GACGGTCTCCCTCTCCTGACGTGCTAG,0.451
TTAGATGCCAGTTTCGATTAGTGCTAG,5.87
GACGTTTTCGGTCTCGGGACGTGCTAG,6.01
GACGGGTTCGACTTTCGGGACGTGCTA,3.36

# Study 2
# Target: CCNF, cyclin fold, Cln2 fusion (human)
# Technique: yeast growth competition, sequencing
# Sample: yeast
# Notes: weak parent motif
# Baseline: not given
# Reading: higher = stronger binding
# Starting sequence: MASTL docking peptide (human); PMIAKNLMCELDE
Change,normalised enrichment score
L11R,0.0854
N6E,-0.608
E10K,0.129
C9Q,0.104
M8A,-0.417
L7F,-0.558
M2H,0.0573
L7H,-0.884
D12L,-0.177
M8C,-0.508
C9R,0.295
M2L,-0.0701
C9E,-0.458
M8Q,-0.0638
M2Y,0.0121
D12V,0.509
C9V,0.117

# Study 3
# Target: RNA binding protein fox-1 homolog 2, RRM domain, GST-SBP tag (RBFOX2, Homo sapiens, UniProt O43251-10, residues 100-194)
# Technique: RNA Bind-n-Seq
# Molecule type: RNA
# Sample: in vitro
# Tested at: 365 nM
# Notes: natural RNA segment, single round, ends assumed
# Baseline: no-protein control
# Reading: higher = stronger binding
# Residues (chain): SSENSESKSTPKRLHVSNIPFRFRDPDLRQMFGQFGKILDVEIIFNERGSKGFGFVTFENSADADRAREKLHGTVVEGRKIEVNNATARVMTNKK
Oligonucleotide,RBNS enrichment (R)
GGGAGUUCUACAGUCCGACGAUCCAGUCAGCAGUUAAGUAUAUAACAUGGCCCGCAAGGACAAUGAAUCCACUCACAUUGCAGAACAAUUCCGAAAAUGGCAAACUACUACUACUACUGUUCAGUUUUUUAAAUGGAAUUCUCGGGUGCCAA,0.268
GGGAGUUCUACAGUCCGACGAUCUCUUACUCUGUCCACUCUUGUUCAAGUAUCUAACUCUUCUGGAAACCAAAUAGGCUUUAGAAGAGAUUAUCCUAUAUUCCUAUCAGUAUAAUACUAAAAUGUAACUUUUUUGGAAUUCUCGGGUGCCAA,0.741
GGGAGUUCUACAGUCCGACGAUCUUUCAGCUGUUGAUGUAGUUUGGUUUGGAAACUAAGGGACCUGCCCACAGGAGCUGGAGUGAAGGUCUCUCCCCUUCCGCCGAGCCCGUCUGCCAGAGAGUGUCAGCUCUUGGAAUUCUCGGGUGCCAA,0.308
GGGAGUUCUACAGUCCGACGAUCUAUAGUUCCUGCUGUUAACAUUACCUUUUGAAACCUUGGCUCCAGUUUUGGUGCUUCUUAUACAAAUUAAAUGCGAAAAGGGACUGUAAACUUAAGAUGUAUUUUAAGGAUGGAAUUCUCGGGUGCCAA,0.411
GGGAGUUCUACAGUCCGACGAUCUGUGAAGAGAUGGACAGUCUCAUCAGAAAUGUGGUUGUAUAAUGGUGAGCGCCACAUGAGUGUAGAGGCACUAUAUGACGUAGUGUACUGAGCAUGCAACGCUGCUGCCGUGGAAUUCUCGGGUGCCAA,1.7
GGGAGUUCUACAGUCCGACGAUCGGGGACUAGAGGACAGAAGGGGACGUUCCCUUCACCUGGGAAUUCUCACCCUGGUGUCAACAUGCUGUGCCUUUCUCUUUCUCUAUUUUUGUUGGUGACCUGGAUAGUGUUGGAAUUCUCGGGUGCCAA,1.19
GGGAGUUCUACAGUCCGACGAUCCAGCAACGUGAUCUGUAACUUGAUGUGGAGACGGGUGGUAGGACCCUGCUGAGGUUCAGAACUUUGAACCCUCAGGUUCUCCUGGGUUUACUUCACCUGAGGGAAUAGCCUGGAAUUCUCGGGUGCCAA,1.67
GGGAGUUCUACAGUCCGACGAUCAACAGAACUGUGGUAUUGUUUCGAGAAGAAUUAAGUAAAGUUUAAUCUUUCUGAACUCCUGACUUACUCCAGUACACAAUGCCAAUCGCUGCACCAUUUGAUGUGCAUGUUGGAAUUCUCGGGUGCCAA,0.654
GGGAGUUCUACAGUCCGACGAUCUUAACAAGUAUUGUAGGCACGGUGGAUUUUUUUGAAAUACCCAUGUGUCCAAUAGCAAGUUAAGGAACCUAGCGCAUCAAAUUUUGUUUUCUUCAUUCAUUUGGAACCUUUGGAAUUCUCGGGUGCCAA,1.14
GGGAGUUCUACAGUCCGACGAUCACAAUUUGUUCCAACUUUAAUCCAUAAUUUAAAAACUGACAAAUCACUUUCAGAAAUUCAGGUGCACAAGGGAAACUUUCAAGUACGAUCCAAUUAUCUUUCUGAUCCUUUGGAAUUCUCGGGUGCCAA,0.626
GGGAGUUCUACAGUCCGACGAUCUUGUUCAUCUGCUGCUGUUUACAUUCUAGGGGGGGGUCAAGGGAAGCACCCUCCCUCCCUUGUCCCCCGAAGCACAGAGGGGAGAGGGGCCGAGGAAGUAGGUACCUCUCUGGAAUUCUCGGGUGCCAA,0.313
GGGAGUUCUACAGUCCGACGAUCCAAGUUCAAGGUUCACUCCCUAUAUGUGAUUAUAGGAAUUGUUUGUGGAAAUGGAUUAACAUACCCGUCUAUGCCUAAAAGAUAAUAAAACUGAAAUAUGUCUUCACAGGUGGAAUUCUCGGGUGCCAA,0.481

# Study 4
# Target: Prothrombin, mature alpha-thrombin (F2, Homo sapiens, UniProt P00734)
# Technique: aptamer microarray, sandwich
# Molecule type: DNA with 2'F-ANA
# Sample: in vitro
# Tested at: 200 nM
# Notes: whole 15-mer aptamer, many near background
# With: Cy3 exosite-II aptamer, 400 nM
# Reading: higher = stronger binding
# Oligonucleotide: GGTTGGTGTGGTTGG
Modification,mean fluorescence intensity [a.u.]
2'F-ANA at 1 2 4 5 6 7 8 9 11 12 13 14 15,52.8
2'F-ANA at 1 3 4 7 8 9 11 12 14 15,79.8
2'F-ANA at 3 5 6 12 13 14 15,83.8
2'F-ANA at 1 4 5 8 9 10 11 12,54
2'F-ANA at 1 2 8 10 14 15,44.9
2'F-ANA at 1 3 5 6 8 9 10 11 13 14,48.2
2'F-ANA at 2 3 8 9 10 12 14,368
2'F-ANA at 1 4 5 6 11 14 15,46.6
2'F-ANA at 2 3 6 7 8 11 13,652
2'F-ANA at 1 3 4 7 8 13,200
2'F-ANA at 3 4 5 11 12,198
2'F-ANA at 3 5 7 8 9 11 13 14 15,58
2'F-ANA at 2 4 6 8 10 12,108
2'F-ANA at 4 5 8 9 10 11 13 14 15,46.7
2'F-ANA at 1 2 3 4 6 10 11 12 13 15,86.3
2'F-ANA at 3 5 6 7 13 14 15,57.7
2'F-ANA at 5 6 8 12 14,51.1
2'F-ANA at 1 2 7 8 9 10 11 12 13,63.3
2'F-ANA at 3 4 7 10,334
2'F-ANA at 3 8 9 10 11 12 14 15,384
2'F-ANA at 1 2 3 6 11 15,156
2'F-ANA at 1 2 4 5 6 11 12 13 15,65.2
2'F-ANA at 8 9 11 12 13,715
2'F-ANA at 2 5 7 9 10 11 13 14,112
2'F-ANA at 4 5 6 9 13 15,54.1

# Excerpt of the above (study 1):
Oligonucleotide,fitted relative affinity [z-score]
GACGGACTGAGTCTCGGGACGTGCTAG,-0.355
GACGGACTGGACGCTGGGGACGTGCTA,-1.04
TTAGGACTGGGGGATCGGTTAGTGCTA,0.234
GACGGTTCCGGTTTCCGGACGTGCTAG,4.43
TCACATCTCCAGTAGCCTACTGTGCTA,1.55
